Assay results pooled from the literature.
Protocols differ between the studies behind these lines. ≈ marks a conversion by molar mass, not a printed value.
Chain of UniProt Q15569 (whole entry, looked up): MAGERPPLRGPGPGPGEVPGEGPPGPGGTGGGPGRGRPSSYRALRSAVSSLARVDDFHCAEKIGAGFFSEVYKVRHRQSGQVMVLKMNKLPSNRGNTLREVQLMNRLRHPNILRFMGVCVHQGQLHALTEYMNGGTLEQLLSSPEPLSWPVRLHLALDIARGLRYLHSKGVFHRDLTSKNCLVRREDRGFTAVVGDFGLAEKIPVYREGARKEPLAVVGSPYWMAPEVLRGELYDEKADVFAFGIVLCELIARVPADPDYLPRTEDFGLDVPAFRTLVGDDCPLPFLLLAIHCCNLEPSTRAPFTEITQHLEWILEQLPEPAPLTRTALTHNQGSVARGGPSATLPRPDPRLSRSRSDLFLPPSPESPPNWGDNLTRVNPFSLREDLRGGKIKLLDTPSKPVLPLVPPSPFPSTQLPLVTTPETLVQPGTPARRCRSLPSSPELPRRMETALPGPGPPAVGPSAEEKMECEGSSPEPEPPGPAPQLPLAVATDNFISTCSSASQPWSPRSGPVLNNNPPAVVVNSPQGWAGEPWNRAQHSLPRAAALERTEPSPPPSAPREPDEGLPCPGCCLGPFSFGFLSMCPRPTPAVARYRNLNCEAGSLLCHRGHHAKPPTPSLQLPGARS
Chain of UniProt Q9P1W9 (whole entry, looked up): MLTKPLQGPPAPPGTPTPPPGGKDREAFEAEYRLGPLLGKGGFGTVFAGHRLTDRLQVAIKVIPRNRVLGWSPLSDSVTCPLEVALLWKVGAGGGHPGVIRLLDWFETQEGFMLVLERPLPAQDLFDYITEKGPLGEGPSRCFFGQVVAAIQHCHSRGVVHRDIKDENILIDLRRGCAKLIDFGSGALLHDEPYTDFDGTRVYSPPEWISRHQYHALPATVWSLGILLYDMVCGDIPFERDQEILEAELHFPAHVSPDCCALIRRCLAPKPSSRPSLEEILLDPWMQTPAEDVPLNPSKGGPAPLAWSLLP
Chain of UniProt Q8TDR2 (whole entry, looked up): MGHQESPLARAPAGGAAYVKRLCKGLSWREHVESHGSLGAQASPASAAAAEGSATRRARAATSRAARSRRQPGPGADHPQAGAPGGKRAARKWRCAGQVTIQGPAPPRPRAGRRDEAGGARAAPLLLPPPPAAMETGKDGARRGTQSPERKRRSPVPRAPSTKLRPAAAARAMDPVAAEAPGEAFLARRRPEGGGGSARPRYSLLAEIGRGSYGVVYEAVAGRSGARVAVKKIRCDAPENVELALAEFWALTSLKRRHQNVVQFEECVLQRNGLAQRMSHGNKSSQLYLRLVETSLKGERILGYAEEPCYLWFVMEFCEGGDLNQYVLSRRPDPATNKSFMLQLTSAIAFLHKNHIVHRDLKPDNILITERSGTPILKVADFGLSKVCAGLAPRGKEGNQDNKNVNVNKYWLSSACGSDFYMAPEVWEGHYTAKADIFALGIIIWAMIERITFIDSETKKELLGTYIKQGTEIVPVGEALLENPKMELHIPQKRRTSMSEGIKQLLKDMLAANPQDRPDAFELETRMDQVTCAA
Chain of UniProt Q08345 (whole entry, looked up): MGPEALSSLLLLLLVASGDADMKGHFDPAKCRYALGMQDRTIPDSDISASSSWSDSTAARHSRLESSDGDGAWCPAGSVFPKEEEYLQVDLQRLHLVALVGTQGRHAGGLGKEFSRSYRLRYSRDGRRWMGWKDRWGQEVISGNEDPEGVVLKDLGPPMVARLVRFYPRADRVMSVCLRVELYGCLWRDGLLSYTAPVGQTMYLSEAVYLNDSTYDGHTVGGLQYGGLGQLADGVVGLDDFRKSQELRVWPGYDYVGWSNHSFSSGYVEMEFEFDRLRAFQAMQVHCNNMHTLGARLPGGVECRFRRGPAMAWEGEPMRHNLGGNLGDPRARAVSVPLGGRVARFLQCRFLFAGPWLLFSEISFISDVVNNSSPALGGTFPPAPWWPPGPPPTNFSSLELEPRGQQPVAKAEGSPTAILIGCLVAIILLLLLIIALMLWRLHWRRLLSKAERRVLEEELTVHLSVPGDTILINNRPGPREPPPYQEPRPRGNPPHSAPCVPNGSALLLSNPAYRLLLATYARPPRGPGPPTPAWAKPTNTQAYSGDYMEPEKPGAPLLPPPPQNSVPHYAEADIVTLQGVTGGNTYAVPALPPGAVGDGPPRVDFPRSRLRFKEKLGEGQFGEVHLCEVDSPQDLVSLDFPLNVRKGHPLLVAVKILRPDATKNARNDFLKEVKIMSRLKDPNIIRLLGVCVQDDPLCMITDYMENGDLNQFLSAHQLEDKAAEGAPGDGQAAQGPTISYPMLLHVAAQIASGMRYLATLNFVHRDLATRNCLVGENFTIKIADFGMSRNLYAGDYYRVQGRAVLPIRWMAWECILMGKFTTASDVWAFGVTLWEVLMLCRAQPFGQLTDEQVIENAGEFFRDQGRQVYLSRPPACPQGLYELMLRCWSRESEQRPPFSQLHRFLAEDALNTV

Compound	tested on	assay	test system	conditions	quantity	result
CCc1nc2nc(C)cc(Nc3cc(C)cc(C)c3)n2n1	Plasmodium falciparum	parasite growth, SYBR Green	3D7	72 h	EC50	2690 nM
N.N.[Cl][Pt][Cl]	JeKo-1	cell growth or viability, ATP luminescence		10 µM, 72 h	inhibition	100%
COC(=O)c1cc(-c2cccc(NC(=O)Nc3cccc(Cl)c3Cl)c2)on1	Mycobacteroides chelonae	microbial growth, broth dilution	ATCC35752	48 h	MIC	> 64 µg/mL
C#Cc1ccc(O)c(C=NNC(=O)c2ccc(OC(F)(F)F)cc2F)c1	Cryptococcus neoformans	microbial growth, broth dilution		pH 7.4	MIC80	4 µg/mL (≈ 10.9 µM)
O=C(CSc1nnc(O)n1Cc1ccccc1)Nc1ccccc1-c1ccccc1	Plasmodium falciparum	parasite growth, SYBR Green	3D7	72 h	EC50	1760 nM
Nc1ncnc2c([C@@H]3N[C@H](CO)[C@@H](O)[C@H]3O)c[nH]c12	Dengue virus	viral replication	Vero 76, DENV2	0.9 µM	inhibition	9.4%
[2H]c1c([2H])c([C@]2([2H])CCCN2C(=O)C(C)(C)Oc2ccc3cn[nH]c3c2)c([2H])c([2H])c1C([2H])([2H])[2H]	PIM2 (Homo sapiens, UniProt Q9P1W9)	binding, competition with immobilised ligand		1 µM	remaining binding	90%
C[C@H]1[C@@H](O)O[C@@H]2O[C@@]3(C)CC[C@H]4[C@H](C)CC[C@@H]1[C@@]24OO3	Plasmodium falciparum	parasite growth, SYBR Green	3D7	72 h	EC50	22.6 nM
COC(=O)c1cc(-c2cccc(NC(=O)Nc3cc(Cl)ccc3Cl)c2)on1	Pseudomonas aeruginosa	microbial growth, broth dilution	ATCC27853		MIC	> 64 µg/mL
C#Cc1n[nH]c2c(-c3cn(C(C)c4ccccn4)c(=O)[nH]c3=O)cc(F)cc12 (stereo not shown)	Cyclin-dependent kinase 2, with cyclin A (CDK2, Homo sapiens, UniProt P24941)	enzyme activity, inhibitor		1 µM	inhibition	7.7%
Cc1sc2c(=O)n(O)c(=O)[nH]c2c1C	Human betaherpesvirus 5	viral replication, inhibitor		10 µM, 7 days	inhibition	-42%
C=C(C)[C@@]12C[C@@H](COC(=O)c3ccccc3)[C@@]34OC5(O[C@@H]1[C@@H]3[C@@H]1O[C@]1(CO)[C@@H](O)[C@@]1(O)[C@H]4[C@H]([C@H](C)[C@@H]1OC(=O)c1ccccc1)[C@H](C)CCCCCC[C@H]5O)O2	Human immunodeficiency virus 1	viral replication	MT4		IC50	0.28 nM
COC(=O)c1cc(-c2cccc(NC(=O)Nc3ccc(Cl)c(Cl)c3)c2)on1	Pseudomonas aeruginosa	microbial growth, broth dilution	ATCC27853		MIC	> 64 µg/mL
C#Cc1cccc(O)c1C=NNC(=O)c1ccc(Br)cc1	Candida albicans	microbial growth		pH 7.4	MIC80	8 µg/mL (≈ 23.3 µM)
O=C(NNc1ccc(Cl)c(Cl)c1)c1nnc(CC23CC4CC(CC(C4)C2)C3)o1	Rhizoctonia solani	microbial growth		50 µg/mL	inhibition	75.4%
COC(=O)c1cc(-c2cccc(NC(=O)Nc3ccc(F)cc3F)c2)on1	Mycobacteroides chelonae	microbial growth, broth dilution	ATCC35752	48 h	MIC	> 64 µg/mL
CC(=O)N1CCN(c2ccc(OCC3COC(Cn4ccnc4)(c4ccc(Cl)cc4Cl)O3)cc2)CC1 (stereo not shown)	Candida albicans	microbial killing, broth dilution	SP3931	48 h	MFC	> 64 µM
Cc1nn(C)cc1-c1nc2c(N3CCN(Cc4ccc(Cl)cc4)CC3)c(Cl)cnc2[nH]1	DDR1 (Homo sapiens, UniProt Q08345)	binding, competition with immobilised ligand		1 µM	remaining binding	55%
Cc1ccc(-n2nc(C(C)(C)C)cc2NC(=O)Nc2ccc(OCCN3CCOCC3)c3ccccc23)cc1	Betacoronavirus 1	viral replication	MRC5, OC43		IC50	11000 nM
C#Cc1ccc(C(=O)NN=Cc2ccc(C#C)cc2O)cc1	Cryptococcus neoformans	microbial growth, broth dilution		pH 7.4	MIC80	0.007 µg/mL (≈ 0.0243 µM)
CC(=O)c1c(Cc2ccccc2Cl)c[nH]c1C	Plasmodium falciparum	parasite growth, SYBR Green	3D7	72 h	EC50	165 nM
Cc1ccc(NNC(=O)c2nnc(CC34CC5CC(CC(C5)C3)C4)o2)cc1	Rhizoctonia solani	microbial growth			EC50	> 50 µg/mL
CC[C@H](C)[C@H](NC(=O)[C@H](Cc1ccccc1)NC(=O)[C@H](CCC(=O)O)NC(=O)[C@H](CCCNC(=N)N)NC(=O)[C@H](C)NC(=O)[C@H](C)NC(=O)[C@H](CCC(N)=O)NC(=O)[C@H](CCC(=O)O)NC(=O)[C@H](CCC(=O)O)NC(=O)[C@H](CC(C)C)NC(=O)[C@H](Cc1ccc(O)cc1)NC(=O)[C@H](CO)NC(=O)[C@H](CO)NC(=O)[C@@H](NC(=O)[C@H](CC(=O)O)NC(=O)[C@H](CO)NC(=O)[C@@H](NC(=O)[C@H](Cc1ccccc1)NC(=O)[C@@H](NC(=O)CNC(=O)[C@H](CCC(=O)O)NC(=O)[C@H](C)NC(=O)CCc1c[nH]cn1)[C@@H](C)O)[C@@H](C)O)C(C)C)C(=O)N[C@@H](C)C(=O)N[C@@H](Cc1c[nH]c2ccccc12)C(=O)N[C@@H](CC(C)C)C(=O)N[C@H](C(=O)N[C@@H](CCCNC(=N)N)C(=O)NCC(=O)N[C@@H](CCCNC(=N)N)C(=O)N[C@@H](CCCCNC(=O)COCCOCCNC(=O)COCCOCCNC(=O)CC[C@H](NC(=O)CCCCCCCCCCCCCCCCC(=O)O)C(=O)O)C(=O)NCC(=O)NCC(=O)N[C@@H](CO)C(=O)N[C@@H](CCCCNc1c(NCCCCCN(O)C(=O)CCC(=O)NCCCCCN(O)C(=O)CCC(=O)NCCCCCN(O)C(C)=O)c(=O)c1=O)C(=O)O)C(C)C			rat, plasma	subcutaneous, 20 nmol/kg	AUC	1.31 µM·h

Compound	tested on	assay	test system	conditions	quantity	result
C#Cc1ccc(C=NNC(=O)c2ccc(COC)cc2)c(O)c1	Candida albicans	microbial growth		pH 7.4	MIC80	2 µg/mL (≈ 6.49 µM)
COC(=O)c1cc(-c2cccc(NC(=O)Nc3ccc(Cl)c(C(F)(F)F)c3)c2)on1	Mycobacteroides chelonae	microbial growth, broth dilution	ATCC35752	48 h	MIC	> 64 µg/mL
O=C(NNc1ccc(Cl)cc1)c1nnc(C23CC4CC(CC(C4)C2)C3)o1	Rhizoctonia solani	microbial growth		50 µg/mL	inhibition	68.7%
CC(Oc1cccc(Cl)c1)C(=O)N1CCc2ccccc21 (stereo not shown)	Plasmodium falciparum	parasite growth, SYBR Green	3D7	72 h	EC50	746 nM
COc1ncccc1-c1cnn2ccc(N3CCN(C(=O)OC(C)C)CC3)nc12	STK35 (Homo sapiens, UniProt Q8TDR2)	binding, competition with immobilised ligand		1 µM	remaining binding	68%
O=C(NNc1cccc(Cl)c1)c1nnc(C23CC4CC(CC(C4)C2)C3)o1	Rhizoctonia solani	microbial growth			EC50	> 50 µg/mL
COC(=O)c1cc(-c2cccc(NC(=S)Nc3ccc([N+](=O)[O-])cc3)c2)on1	Mycobacteroides chelonae	microbial growth, broth dilution	ATCC35752	48 h	MIC	> 64 µg/mL
O=C(NNc1ccc(F)c(F)c1)c1nnc(C23CC4CC(CC(C4)C2)C3)o1	Rhizoctonia solani	microbial growth		50 µg/mL	inhibition	42.5%
Nc1ncc(-c2nc(N3CCOCC3)nc(N3CCOCC3)n2)c(C(F)F)n1	TESK1 (Homo sapiens, UniProt Q15569)	binding, competition with immobilised ligand		10 µM	remaining binding	72%
O=C(NCCc1ncc(C(F)(F)F)cc1Cl)c1ccccc1C(F)(F)F	Rhizoctonia solani	microbial growth			EC50	> 50 µg/mL
CC(C)(C)C(O)(CCc1ccc(Cl)cc1)Cn1cncn1 (stereo not shown)	Botrytis cinerea	microbial growth		200 µg/mL	inhibition	100%
C#Cc1cccc(C=NNC(=O)c2ccc(Br)cc2)c1O	Candida albicans	microbial growth		pH 7.4	MIC80	0.25 µg/mL (≈ 0.728 µM)
C[C@@H]1[C@H](O)[C@@H](C)/C=C/C=C/C=C/C=C/C=C/C=C/C=C/[C@H](O[C@@H]2O[C@H](C)[C@@H](O)[C@H](N)[C@@H]2O)C[C@@H]2O[C@](O)(C[C@@H](O)C[C@@H](O)[C@H](O)CC[C@@H](O)C[C@@H](O)CC(=O)O[C@H]1C)C[C@H](O)[C@H]2C(=O)O	Candida albicans	microbial killing, broth dilution	SP3931	48 h	MFC	0.5 µM (≈ 0.462 µg/mL)
C#Cc1cccc(C=NNC(=O)c2ccc(Br)cc2Br)c1O	Candida albicans	microbial growth		pH 7.4	MIC80	16 µg/mL (≈ 37.9 µM)
O[C@@H](CN[C@H](COCC1CC1)Cc1ccccc1)c1cc(Cl)cc2c1-c1ccc(Cl)cc1C2	Plasmodium falciparum	parasite growth, SYBR Green	W2	48 h, drug-resistant strain, blood stage	IC50	6.4 nM
OC(c1cc(C(F)(F)F)nc2c(C(F)(F)F)cccc12)C1CCCCN1 (stereo not shown)	Plasmodium falciparum	parasite growth, SYBR Green	3D7	72 h	EC50	20 nM
OC(Cn1cncn1)(Cn1cncn1)c1ccc(F)cc1F	Candida albicans	microbial killing, broth dilution	CGMCC2	48 h	MFC	16 µM (≈ 4.9 µg/mL)
CCOC(=O)c1cc(-c2cccc(NC(=O)Nc3ccc(Cl)c(Cl)c3)c2)on1	Pseudomonas aeruginosa	microbial growth, broth dilution	ATCC27853		MIC	> 64 µg/mL
O=C(NNc1ccc(F)c(F)c1)c1nnc(CC23CC4CC(CC(C4)C2)C3)o1	Rhizoctonia solani	microbial growth			EC50	> 12.5 µg/mL
C#Cc1ccc(O)c(C=NNC(=O)c2ccc(COC)cc2)c1	Candida albicans	microbial growth		pH 7.4	MIC80	0.25 µg/mL (≈ 0.811 µM)
COC(=O)c1cc(-c2cccc(NC(=S)Nc3ccc(Cl)cc3)c2)on1	Mycolicibacterium fortuitum	microbial growth, broth dilution	ATCC6841	48 h	MIC	> 64 µg/mL
c1nc2nc3c(c(Nc4ccc5c(c4)CCC5)n2n1)CCC3	Plasmodium falciparum	parasite growth, SYBR Green	3D7	72 h	EC50	7080 nM
C#Cc1ccc(O)c(C=NNC(=O)c2ccc(Br)c(Br)c2)c1	Cryptococcus neoformans	microbial growth, broth dilution		pH 7.4	MIC80	0.06 µg/mL (≈ 0.142 µM)
